Results from different studies.
Lines come from different studies, so protocols differ. Several values in a cell are separate wells, animals, samples, runs or records. Numbers after ± are the reported error.
ABCG2: Broad substrate specificity ATP-binding cassette transporter ABCG2 (ABCG2, Homo sapiens, UniProt Q9UNQ0)
UniProt Q9UNQ0, sequence (whole entry, looked up): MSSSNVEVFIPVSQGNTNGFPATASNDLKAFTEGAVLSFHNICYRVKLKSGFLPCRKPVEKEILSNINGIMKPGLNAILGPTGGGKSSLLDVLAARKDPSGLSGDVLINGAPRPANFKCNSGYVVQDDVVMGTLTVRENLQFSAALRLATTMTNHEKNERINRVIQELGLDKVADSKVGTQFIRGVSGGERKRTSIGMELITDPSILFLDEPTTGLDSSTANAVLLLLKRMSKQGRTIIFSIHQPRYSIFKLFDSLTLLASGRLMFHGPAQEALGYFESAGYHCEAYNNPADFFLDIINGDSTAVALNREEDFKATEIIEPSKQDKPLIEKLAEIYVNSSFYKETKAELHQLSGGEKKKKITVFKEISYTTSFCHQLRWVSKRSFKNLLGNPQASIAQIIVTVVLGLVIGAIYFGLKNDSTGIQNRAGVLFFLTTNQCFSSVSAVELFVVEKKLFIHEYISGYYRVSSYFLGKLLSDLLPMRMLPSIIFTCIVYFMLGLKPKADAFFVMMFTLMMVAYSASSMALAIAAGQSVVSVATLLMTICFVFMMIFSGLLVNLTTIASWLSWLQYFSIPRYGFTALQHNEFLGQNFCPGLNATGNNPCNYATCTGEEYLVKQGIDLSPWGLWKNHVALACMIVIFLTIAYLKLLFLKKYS
SLC22A2: Solute carrier family 22 member 2 (SLC22A2, Homo sapiens, UniProt O15244)
UniProt O15244, sequence (whole entry, looked up): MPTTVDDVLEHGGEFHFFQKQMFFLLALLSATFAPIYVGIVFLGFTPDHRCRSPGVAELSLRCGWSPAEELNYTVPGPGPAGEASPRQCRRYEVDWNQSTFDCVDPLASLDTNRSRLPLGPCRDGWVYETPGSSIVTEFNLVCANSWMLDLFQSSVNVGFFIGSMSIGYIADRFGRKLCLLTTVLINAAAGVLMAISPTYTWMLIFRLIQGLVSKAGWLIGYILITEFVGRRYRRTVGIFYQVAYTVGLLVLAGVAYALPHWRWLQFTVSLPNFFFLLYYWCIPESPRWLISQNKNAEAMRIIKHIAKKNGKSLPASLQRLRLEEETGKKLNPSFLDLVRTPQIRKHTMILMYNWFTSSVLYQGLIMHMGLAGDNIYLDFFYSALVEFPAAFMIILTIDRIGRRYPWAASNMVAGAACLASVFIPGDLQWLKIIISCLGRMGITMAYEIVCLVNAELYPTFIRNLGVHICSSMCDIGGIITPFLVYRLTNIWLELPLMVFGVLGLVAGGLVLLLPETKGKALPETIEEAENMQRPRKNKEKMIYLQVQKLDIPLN
CACNA1C: Voltage-dependent L-type calcium channel subunit alpha-1C (CACNA1C, Homo sapiens, UniProt Q13936)
UniProt Q13936, sequence (whole entry, looked up): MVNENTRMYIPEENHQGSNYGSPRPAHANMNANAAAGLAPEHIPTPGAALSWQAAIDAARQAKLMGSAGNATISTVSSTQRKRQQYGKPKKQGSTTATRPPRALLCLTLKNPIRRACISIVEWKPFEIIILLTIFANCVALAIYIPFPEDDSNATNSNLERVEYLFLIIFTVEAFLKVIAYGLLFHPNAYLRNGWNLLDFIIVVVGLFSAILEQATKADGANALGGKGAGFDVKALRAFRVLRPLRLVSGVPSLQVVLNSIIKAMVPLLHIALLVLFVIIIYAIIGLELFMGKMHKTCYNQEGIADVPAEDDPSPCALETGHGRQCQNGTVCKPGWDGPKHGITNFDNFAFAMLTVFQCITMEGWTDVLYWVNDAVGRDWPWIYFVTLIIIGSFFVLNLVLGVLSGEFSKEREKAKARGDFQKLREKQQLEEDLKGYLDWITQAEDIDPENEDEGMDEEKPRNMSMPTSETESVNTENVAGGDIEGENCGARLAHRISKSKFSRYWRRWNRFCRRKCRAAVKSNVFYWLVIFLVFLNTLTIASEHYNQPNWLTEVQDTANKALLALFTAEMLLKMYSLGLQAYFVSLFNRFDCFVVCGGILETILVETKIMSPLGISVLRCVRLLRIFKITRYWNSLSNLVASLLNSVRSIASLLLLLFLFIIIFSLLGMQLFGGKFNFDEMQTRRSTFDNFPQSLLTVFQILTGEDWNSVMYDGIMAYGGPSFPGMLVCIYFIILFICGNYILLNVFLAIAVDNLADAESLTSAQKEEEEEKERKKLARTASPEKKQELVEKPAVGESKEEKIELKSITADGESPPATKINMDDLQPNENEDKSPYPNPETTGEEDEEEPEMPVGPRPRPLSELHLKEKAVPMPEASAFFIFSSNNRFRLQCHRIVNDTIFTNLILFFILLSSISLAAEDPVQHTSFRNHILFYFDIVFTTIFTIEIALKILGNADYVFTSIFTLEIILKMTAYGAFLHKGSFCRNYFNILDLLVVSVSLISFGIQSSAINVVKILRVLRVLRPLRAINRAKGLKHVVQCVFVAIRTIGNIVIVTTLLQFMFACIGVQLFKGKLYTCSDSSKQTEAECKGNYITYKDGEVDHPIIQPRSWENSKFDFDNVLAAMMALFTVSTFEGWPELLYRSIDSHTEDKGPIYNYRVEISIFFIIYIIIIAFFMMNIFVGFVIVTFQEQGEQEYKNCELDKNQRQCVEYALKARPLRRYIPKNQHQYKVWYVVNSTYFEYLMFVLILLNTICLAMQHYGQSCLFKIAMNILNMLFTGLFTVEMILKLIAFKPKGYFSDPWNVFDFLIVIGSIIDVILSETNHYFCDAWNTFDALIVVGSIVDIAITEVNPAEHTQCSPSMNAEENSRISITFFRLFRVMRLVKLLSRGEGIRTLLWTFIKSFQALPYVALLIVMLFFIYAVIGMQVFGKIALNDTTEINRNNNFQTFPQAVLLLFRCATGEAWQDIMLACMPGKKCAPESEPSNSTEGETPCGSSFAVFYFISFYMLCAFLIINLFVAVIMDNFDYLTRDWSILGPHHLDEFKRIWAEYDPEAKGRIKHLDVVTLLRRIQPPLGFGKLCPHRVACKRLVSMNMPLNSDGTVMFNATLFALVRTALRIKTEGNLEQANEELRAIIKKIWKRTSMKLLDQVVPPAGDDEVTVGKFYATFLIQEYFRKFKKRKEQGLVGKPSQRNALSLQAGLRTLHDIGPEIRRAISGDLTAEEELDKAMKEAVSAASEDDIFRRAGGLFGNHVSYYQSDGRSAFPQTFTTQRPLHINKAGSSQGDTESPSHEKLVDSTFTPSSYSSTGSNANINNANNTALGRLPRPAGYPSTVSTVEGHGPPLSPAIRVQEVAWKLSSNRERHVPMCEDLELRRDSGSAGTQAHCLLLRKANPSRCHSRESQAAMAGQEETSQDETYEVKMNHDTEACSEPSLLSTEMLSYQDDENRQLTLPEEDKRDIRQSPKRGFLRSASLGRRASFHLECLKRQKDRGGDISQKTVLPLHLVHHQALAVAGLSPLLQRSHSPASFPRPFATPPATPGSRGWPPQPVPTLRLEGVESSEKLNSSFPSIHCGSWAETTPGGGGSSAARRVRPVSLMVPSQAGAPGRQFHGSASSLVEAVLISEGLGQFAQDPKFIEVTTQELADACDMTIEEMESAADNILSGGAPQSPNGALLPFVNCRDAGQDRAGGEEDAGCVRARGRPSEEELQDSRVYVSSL
UniProt P08684, sequence (whole entry, looked up): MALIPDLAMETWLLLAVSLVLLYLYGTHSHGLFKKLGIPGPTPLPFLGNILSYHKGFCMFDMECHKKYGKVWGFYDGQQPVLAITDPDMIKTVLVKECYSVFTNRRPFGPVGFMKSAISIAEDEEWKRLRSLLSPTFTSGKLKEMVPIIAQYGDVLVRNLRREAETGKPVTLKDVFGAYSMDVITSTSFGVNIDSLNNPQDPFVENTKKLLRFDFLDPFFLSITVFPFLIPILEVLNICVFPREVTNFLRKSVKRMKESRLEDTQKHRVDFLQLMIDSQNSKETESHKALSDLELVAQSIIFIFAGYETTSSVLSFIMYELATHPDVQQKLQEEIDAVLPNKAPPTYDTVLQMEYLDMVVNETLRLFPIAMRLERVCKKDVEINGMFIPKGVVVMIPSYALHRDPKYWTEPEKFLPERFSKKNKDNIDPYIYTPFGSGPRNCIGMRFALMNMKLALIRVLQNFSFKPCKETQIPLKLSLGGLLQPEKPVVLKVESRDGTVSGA

SMILES | target or system | assay | test system | conditions | how to read | quantity | value
CNC(=O)C1OC(n2cnc3c(NCc4cccc(I)c4)ncnc32)C(O)C1O (stereo not shown) | ABCG2 | transport, inhibitor | – | 100 µM, 5 (unit not given), pH 7, together with: CCK-8 | – | inhibition | 48.8%
Cc1ccc(N2CC(N(C)C)C2)cc1C(=O)N[C@H](C)c1cc(-c2cnn(C)c2)nc2ccccc12 | Vero E6 | – | – | 31.25 µM | – | viability | 90.7% and 92.9% and 91.1%
CC(=O)NCCCC[C@@H]1NC(=O)[C@H](Cc2c[nH]c3c(C)cccc23)NC(=O)[C@H]([C@@H](C)O)NC(=O)[C@H](CC(N)=O)NC(=O)[C@@H](NC(C)=O)C(C)(C)SSC(C)(C)[C@@H](C(=O)N[C@@H](Cc2ccc(OCCN)cc2)C(=O)N[C@@H](Cc2ccc3ccccc3c2)C(=O)NC2(C(=O)N[C@@H](CCC(=O)O)C(=O)N[C@@H](CC(N)=O)C(=O)N[C@@H](Cc3cccnc3)C(=O)N(C)CC(N)=O)CCOCC2)NC1=O | SLC22A2 | substrate | HEK293 overexpressing transporter | 5 µM, 30 min, together with: 300 µM quinidine | – | uptake rate | 0.449 ± 0.077 pmol/mg/min
O=C(CN1C(=O)C2(CCN(C(=O)c3cnc4[nH]ncc4c3)CC2)c2c(F)cccc21)NCC(F)(F)F | Cytochrome P450 3A4 (CYP3A4, Homo sapiens, UniProt P08684) | enzyme activity, inhibitor | – | – | – | IC50 | > 50 µM
CCCC[C@H](NC(=O)[C@H](CCC(=O)O)NC(=O)[C@H](CCCCN)NC(=O)[C@H](CO)NC(=O)[C@H](Cc1ccccc1)NC(C)=O)C(=O)N[C@@H](CCCNC(=N)N)C(=O)N[C@@H](CC(N)=O)C(=O)N[C@@H](CCCNC(=N)N)C(=O)N[C@@H](Cc1ccc(O)cc1)C(=O)N[C@@H](Cc1c[nH]c2ccccc12)C(=O)N[C@@H](CCC(=O)O)C(=O)N[C@@H](C)C(=O)N[C@@H](C)C(=O)N[C@@H](CC(C)C)C(=O)N[C@@H](CC(=O)O)C(=O)N1CCC[C@H]1C(=O)N[C@@H](CC(N)=O)C(=O)N[C@@H](CC(C)C)C(=O)N[C@H](C(=O)N[C@@H](CC(N)=O)C(=O)N[C@@H](CCC(N)=O)C(=O)N[C@@H](CCC(N)=O)C(=O)N[C@@H](CCCCN)C(=O)N[C@@H](CCCNC(=N)N)C(=O)N[C@@H](C)C(=O)N[C@@H](CCCCNC(=O)CCCN(C)C(=O)c1ccccc1-c1c2ccc(=N)cc-2oc2cc(N)ccc12)C(=O)N[C@H](C(=O)N[C@@H](CCCNC(=N)N)C(=O)N[C@@H](CO)C(=O)N[C@H](C(=O)N[C@@H](Cc1ccc(O)cc1)C(=O)N[C@@H](CCC(=O)O)C(=O)N[C@@H](CCC(=O)O)C(N)=O)[C@@H](C)CC)[C@@H](C)CC)[C@@H](C)O | trypsin | degradation of compound, LC-MS | – | 40 µM, pH 7.5, 37 °C, 10% DMF, together with: trypsin 12.5 ng/mL | – | half-life | 2.85 ± 0.267 h
CNC(=O)C1CCCN(C(=O)C2CC3CCC2N3C(=O)[C@@H]2C[C@@H](O)CN2C(=O)NCc2cccc(Cl)c2F)C1 (mixture of isomers) | human CYP3A4 | time-dependent inhibition | – | 16.7 µM, preincubation without NADPH, together with: midazolam | – | 1-hydroxymidazolam formed | 1200 ng/mL
CCCCCCCC/C=C/CCCCCCCC(=O)[O][Pt-2]1([OH])([Cl])([NH+]=C(CC)N(C)CCNc2c3ccccc3[nH+]c3ccccc23)[NH]CCC[NH]1.O=[N+]([O-])O.O=[N+]([O-])O | Albumin (ALB, Homo sapiens, UniProt P02768) | tryptophan fluorescence FRET titration | recombinant human serum albumin | pH 7.4, PBS | – | Kd | 1.4 µM
CCN(CC)CCOc1ccc(-c2nnn(Cc3ccc(OC)cc3)c2N)cc1 | Solute carrier organic anion transporter family member 1B3 (SLCO1B3, Homo sapiens, UniProt Q9NPD5) | transporter uptake, inhibitor | – | – | – | IC50 | > 100 µM
CC[C@H](C)[C@H](NC(=O)[C@@H]1CC(=O)NCC[C@H](NC(=O)[C@H](C)N)C(=O)N[C@@H](CCCNC(=N)N)C(=O)N[C@@H](CC(N)=O)C(=O)N[C@@H]([C@@H](C)CC)C(=O)N[C@@H](Cc2ccccc2)C(=O)N[C@@H](CC(C)C)C(=O)N1)C(=O)N[C@@H](CCCCN)C(=O)N[C@@H](Cc1ccccc1)C(=O)N[C@@H](CCCCN)C(=O)N[C@@H](CCCCN)C(=O)N[C@@H](C)C(=O)O | trypsin | proteolytic degradation, RP-HPLC | PBS | 0.33 mM, pH 7.4, 37 °C, together with: trypsin 0.05 µg/mL | – | half-life | < 1.5 h
CSc1nc2[nH]nc([N+](=O)[O-])c(=O)n2n1 | ABCG2 | transport, inhibitor | – | 100 µM, 5 (unit not given), pH 7, together with: CCK-8 | – | inhibition | 23.6%
Cc1ccc(OCCN(C)C)cc1C(=O)N[C@H](C)c1cc(-c2cccnc2N2CCCC2)nc2ccccc12 | Vero E6 | – | – | 125 µM | – | viability | -0.457% and 0.228%
CC12CCC3C(CCC4CC(O)CCC43C)C1CCC2C#N (stereo not shown) | CACNA1C | ion current, blocker, cell-based | – | – | – | IC50 | 10.7 µM
Cc1cc(Nc2nc(C[C@@]3(C(=O)O)CCN(Cc4cccc(Cl)c4F)[C@H](C)C3)cc(C)c2F)n[nH]1 | CACNA1C | – | – | 10 µM, safety pharmacology panel | – | inhibition | 6.43%
CC(CCC(=O)NCC(=O)O)C1CCC2C3CCC4CC(OC5OC(C(=O)O)C(O)C(O)C5O)CCC4(C)C3CC(O)C12C (stereo not shown) | ATP-binding cassette sub-family C member 4 (ABCC4, Homo sapiens, UniProt O15439) | substrate, membrane vesicle uptake | – | 0.2 µM, 10 min | baseline: ATP over AMP | vesicle uptake ratio | 3.9 ± 0.4
O=C1NC2(CC2)COc2ncc(F)cc2[C@H]2COCCN2c2ccn3ncc1c3n2 | – | – | Sprague-Dawley rat, female, brain | oral, 2.5 mg/kg/day, 4 weeks dosing, end of recovery | – | organ-to-body weight ratio | 0.658 ± 0.031%
Cc1cc(-c2ccc3ccccc3c2)nnc1NCCN1CCN(C)CC1 | SLC22A2 | transporter uptake, inhibitor | – | 10 µM | – | inhibition | 67%
